# Results gathered from unrelated publications.
# Each numbered part is a random draw from the data of one study; scales do not carry over between parts. Changes are numbered by the printed parent chain.
# Sequence of UniProt O75116 (whole entry, looked up): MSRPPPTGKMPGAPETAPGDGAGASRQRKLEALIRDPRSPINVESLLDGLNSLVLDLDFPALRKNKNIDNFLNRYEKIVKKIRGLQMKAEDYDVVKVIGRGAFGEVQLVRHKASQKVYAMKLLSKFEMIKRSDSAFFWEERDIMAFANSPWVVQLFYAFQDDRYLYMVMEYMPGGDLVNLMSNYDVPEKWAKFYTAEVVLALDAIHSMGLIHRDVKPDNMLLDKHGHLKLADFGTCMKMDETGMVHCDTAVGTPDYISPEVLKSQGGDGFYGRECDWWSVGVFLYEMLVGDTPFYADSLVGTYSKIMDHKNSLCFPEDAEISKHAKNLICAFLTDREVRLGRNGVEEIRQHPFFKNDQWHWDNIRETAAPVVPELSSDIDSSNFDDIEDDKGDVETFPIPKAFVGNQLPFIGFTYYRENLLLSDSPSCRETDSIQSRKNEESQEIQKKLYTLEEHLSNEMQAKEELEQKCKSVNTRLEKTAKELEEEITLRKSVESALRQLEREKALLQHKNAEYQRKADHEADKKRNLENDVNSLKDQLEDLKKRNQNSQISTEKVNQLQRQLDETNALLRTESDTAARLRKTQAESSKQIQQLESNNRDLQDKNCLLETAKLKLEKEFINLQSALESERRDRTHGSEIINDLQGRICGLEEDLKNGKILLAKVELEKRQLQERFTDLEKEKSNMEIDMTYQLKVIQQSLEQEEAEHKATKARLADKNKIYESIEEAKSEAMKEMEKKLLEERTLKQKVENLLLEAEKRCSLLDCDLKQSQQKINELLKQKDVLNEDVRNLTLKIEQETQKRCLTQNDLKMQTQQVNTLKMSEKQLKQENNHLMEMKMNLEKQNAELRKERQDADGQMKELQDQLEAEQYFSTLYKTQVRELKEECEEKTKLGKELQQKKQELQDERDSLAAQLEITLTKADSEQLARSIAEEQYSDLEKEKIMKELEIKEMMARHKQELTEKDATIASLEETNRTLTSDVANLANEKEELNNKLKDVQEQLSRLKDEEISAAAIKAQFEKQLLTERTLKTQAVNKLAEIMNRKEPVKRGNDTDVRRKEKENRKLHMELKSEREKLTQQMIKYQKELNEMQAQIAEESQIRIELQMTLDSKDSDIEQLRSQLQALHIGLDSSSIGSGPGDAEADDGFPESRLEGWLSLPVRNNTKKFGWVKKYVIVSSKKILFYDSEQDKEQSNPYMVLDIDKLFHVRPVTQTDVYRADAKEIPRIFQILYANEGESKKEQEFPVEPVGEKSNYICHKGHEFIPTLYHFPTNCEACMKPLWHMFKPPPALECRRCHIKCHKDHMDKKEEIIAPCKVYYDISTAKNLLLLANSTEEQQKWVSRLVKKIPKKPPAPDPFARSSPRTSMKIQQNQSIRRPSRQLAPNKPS

# Study 1
# Target: Hepatocyte nuclear factor 3-alpha (Foxa1, Mus musculus, UniProt P35582, residues 1-468, full length assumed)
# Method: EMSA with sequencing
# Molecule type: double-stranded DNA, one strand shown
# Matrix: in vitro
# Tested at: 10 and 20 nM
# Notes: whole designed probe, mean of two concentrations, ends assumed
# Baseline: negative control set to 0
# Reading: higher = stronger binding
# All sequences stand within: GTGAGCGGTGCCCATTGATGGGGAAC … TTTCACTGGGATCGTGGGGAC
# Residues (chain): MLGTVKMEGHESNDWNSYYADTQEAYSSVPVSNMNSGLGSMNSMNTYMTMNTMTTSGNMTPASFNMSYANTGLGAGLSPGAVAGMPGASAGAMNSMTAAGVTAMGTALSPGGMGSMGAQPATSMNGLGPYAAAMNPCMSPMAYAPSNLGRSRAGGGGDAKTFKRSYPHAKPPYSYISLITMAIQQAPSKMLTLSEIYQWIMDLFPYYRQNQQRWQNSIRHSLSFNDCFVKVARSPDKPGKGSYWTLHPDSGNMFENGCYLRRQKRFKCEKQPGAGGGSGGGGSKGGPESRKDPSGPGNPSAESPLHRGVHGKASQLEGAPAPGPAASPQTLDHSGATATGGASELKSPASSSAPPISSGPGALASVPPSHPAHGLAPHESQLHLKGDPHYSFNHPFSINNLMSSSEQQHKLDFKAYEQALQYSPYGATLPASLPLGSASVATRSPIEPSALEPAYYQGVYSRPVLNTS
Oligonucleotide,normalised bound fraction [ratio]
TAATACAGTGTCCACCCCATACTGTAGTCTATCTGAACCTTATCCACTTTAGCTCAAATTTTAATAAAAGTCTACTTCAACCTGCATCTTCATGTTTACACAGTGATCTCAGTCCCAAACTGCCTATCCTCTGGGAATTCCTAATGCATTTATTATCTTGACCAGTTATGTAGATTCAAAGAATCTCATTTAT,0.442
ATCTTCCCCCTCTTCCTTGCCCCACCAGCTCACCTTCCCGGGTATATTGGAGATAGGAAAATAAATAAAGCCGGCATTCGTTAACCCTCTTCTGGCGCAAACTGCCAGAGCAAACAGATGAATCATGGTCCTTTGGCGACGCCAGGCTCCGGGAGAGCAAAGCACCGTGTCAGGGCCATGATCCGGGGTGGCC,0.368
GCACTCGGCTCCCCAGAGGTCAGCGCACCCCAAGCCCAGAGGCCGGCTGGCCTCGGCACGTCTCACTCCACTATCTTCCCTCCTCCCTGAACTCTGTTTACACAAGGCTGGTCTTGGCTCTGAGGCTGCTAGATTTTAAATGCAATCTCACTGGTGACTCACTGGTGCATCGTCATTTGGCTTTGCCTGGAAT,0.477
ATCTTCCCCCTCTTCCTTGCCCCACCAGCTCACCTTCCCGGGTTATTTGCAGATAGGAAAATAAATAAAGCCGGCATTCGTTAACCCTCTTCACGCGCATACTGCTGTTTGCTCTGGATGAATCATGGTCCTTTGGCGAGGCGTGGCTCCGGGAGAGCAAAGCACCGTGTCAGGGCCATGATCCGGGGTGGCC,0.34
GGGGTGCCAGGCTAGGACACAGAAGCCAACAGGAATCCCCAAAGGGAGGAAGTGGAGTCGGGGGTGTGGCAGCCGTGCTGAGATGCTCGGCCTTTATTTACTCTGGGCAGGGACCAAGATAGGCCACTGCAGGCCGGCACCCTGCCTCCCGGCTGCTGGAGCCCCTCCCTCCCAGGAACTGCCAGCCAGGAAA,0.38
CTTCCCACAGCCGACCTCCTCCGCCTGTCCCTCCCGCCACCCCGCCTGTCCCCCGCCTTTCCAGCAGCCTCCAAGTGGCAGGCTGGGTGCTGTGTCATTTAGGGTGTGTGCCCTGCCAGGTGCACGGGGCGGGTCGGGAACCGGTTACCTGGCGGGCGGGCGAGGCGCACCACCTGGCTCGTGCCTCACCGCG,-0.0831
ATCTTCCCCCTCTTCCTTGCCCCACCAGCTCACCTTCCCGGGTTATTTGCAGATAGGAAAATAAATAAAGCCGGCATTCGTTAACCCTCTTCACGCGCATACTGCCAGAGCAAACAGATCTAACATGGTCCTTTGGCGACGCCAGGCTCCGGGAGAGCAAAGCACCGTGTCAGGGCCATGATCCGGGGTGGCC,0.397
CATGTACAAACAAAATATGGGATGTGTATTTTCAGTAATTCCATGTACAAGTTAAACACTCTGATATTTGCATTTAAAATGTCAATGCACATTGTAAACATGAATGCTAACAATCTTTTTTTTTTTTCCTGAGACGGAGTCTTGCTCTATCGCCCAGGCTGGAGTGCAGCGGCACAATCTCTGCTTACTGCCA,0.393

# Study 2
# Target: RING finger protein unkempt homolog, zinc fingers 1-6, GST-SBP tag (UNK, Homo sapiens, UniProt Q9C0B0, residues 30-357)
# Method: RNA Bind-n-Seq
# Molecule type: RNA
# Matrix: in vitro
# Tested at: not given
# Notes: RNA with constant flanks, ends assumed
# Baseline: input RNA pool
# Reading: higher = stronger binding
# All sequences stand within: GGGAGUUCUACAGUCCGACGAUC … CAACAGAGGAUUGAGCAUCA
# Residues (chain): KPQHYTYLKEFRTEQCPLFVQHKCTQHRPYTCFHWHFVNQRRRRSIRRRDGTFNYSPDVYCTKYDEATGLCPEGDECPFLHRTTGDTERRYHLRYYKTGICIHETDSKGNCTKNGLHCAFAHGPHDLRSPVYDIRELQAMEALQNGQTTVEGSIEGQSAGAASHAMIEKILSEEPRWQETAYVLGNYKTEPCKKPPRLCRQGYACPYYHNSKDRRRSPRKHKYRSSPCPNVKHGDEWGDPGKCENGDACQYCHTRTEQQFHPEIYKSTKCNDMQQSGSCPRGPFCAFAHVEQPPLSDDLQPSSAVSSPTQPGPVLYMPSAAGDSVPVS
Oligonucleotide,bound/input enrichment [ratio]
AAAAAUGGAGACAAACAAGAUCUUUGAUGUGUUUCAUGUUUGUGGGCAGGUGAACAAUAUUUCCGAGUAUUUUAAAAAAUCAUUUCUUACAGAGAAAUUAAUUUGCAGUUGAAUGAAAGC,0.331
GAUAUUCUCUACGCCCGGCAAAAGAUUGUUGUCAUAGCGAAAGCCUUUGGUCUCCAAGCCACCGAUCUGGUGUACAUUGACUUUCGAGAUGGAGCUGGGCUGCUUAGACAGUCACGAGAA,0.186
CUGCAUUAUUUGACCAGAGUUGAAGUGACAGAAUUUGAAGACAUUAAAUCAGGUUACAGAACCGAUUUUUAUUUUGAUGAAAAUCCUUACUUUGAAAAUAAAGUUCUCUCCAAAGAAUUU,0.132
AAGCUGGCUGUUCAGAUUGGCAAAGCAGGUCUGCUGAUGUCUGCCAUCACAGUUAUCAUCCCCGUGUUGUAUUUUGUGAUCGAUACCUUCUGGGUUCAGAAAAGACCAUGGCUUGCAGAG,0.118
CAUUAAUUUCAACACAUGGGAACACAUGUACAGAAGAUUUUUUUUUUUUUUUUUUUUUUUUUCCGCUACUCGAGAACUUUUCAUAGAUGAACUUUUUAACAAAUGUUUUCAUUUACAGGA,3.25
CAGCUGGAAGAUGGCCGCACCCUGUCAGACUACAACAUCCAGAAAGAGUCCACCCUGCACUCCGUCCUUCGCCUCAGAGGUGGGAUGCAGAUCUUUGUGAAGACCCUGACAGGCAAAACC,0.152
ACGUGCUGCCAGCUGAGAGACUACCUGUCCGCCGGAGCAGAAACCUUCCUGCUGCGACUUUACCGGAAAACUUUUGAGAAGGAUGGCAAAGCUGAAGAAGUGUGGGUAAAUGUUAGAAAG,0.145
AACGUGGAGUUGAGUUCCUUGGCCCGGCUUCCCAGCUUGAAUAAACUCCGGAAGUUGGAACUCCGUGACAAUAUAAUUUCUGGAGGCUUGGAAGUCCUGGCAGAGAAAUGUCCAAAUCUU,0.0638

# Study 3
# Target: ABI1, truncated, D143A, DHFR fusion (Arabidopsis thaliana)
# Method: DHFR PCA, deep sequencing
# Matrix: yeast
# Notes: methotrexate growth selection, single substitutions
# Together with: (+)-ABA 0.0091 µM
# Baseline: wild-type fitted maximum
# Reading: higher = stronger binding
# Parent: PYL1, truncated, DHFR fusion (Arabidopsis thaliana); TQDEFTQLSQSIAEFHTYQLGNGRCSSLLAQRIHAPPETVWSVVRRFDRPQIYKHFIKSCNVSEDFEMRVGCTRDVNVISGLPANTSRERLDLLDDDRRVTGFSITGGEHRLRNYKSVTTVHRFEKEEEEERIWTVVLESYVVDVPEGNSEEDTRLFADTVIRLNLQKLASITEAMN; partner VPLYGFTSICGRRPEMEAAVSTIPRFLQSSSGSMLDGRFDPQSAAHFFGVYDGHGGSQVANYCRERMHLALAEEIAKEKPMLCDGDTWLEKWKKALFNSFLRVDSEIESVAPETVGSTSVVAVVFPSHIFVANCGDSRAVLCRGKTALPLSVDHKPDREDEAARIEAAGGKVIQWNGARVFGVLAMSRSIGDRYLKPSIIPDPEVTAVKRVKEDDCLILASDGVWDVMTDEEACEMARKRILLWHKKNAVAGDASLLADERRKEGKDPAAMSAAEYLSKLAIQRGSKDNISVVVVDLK
Change,relative binding score [%]
Q10Y,5.47
C60T,0.68
I12G,-4.59
R113E,-3.18
R88F,10.5
D48N,5.3
I57P,-0.57
R69D,-0.496

# Mixed results
Structure (SMILES),target,effect on,mode,tested at,baseline,endpoint,value
Nc1nc(Nc2ccc(S(N)(=O)=O)cc2)nn1C(=O)c1c(F)cccc1F,"Rho-associated protein kinase 2 (ROCK2, Homo sapiens, UniProt O75116)",enzyme activity,inhibitor,0.5 µM,control,remaining activity,18.6%
